{"data": "Results of several laboratories", "note": "A part holds a random share of what one study measured.", "UniProt Q14289, sequence (whole entry, looked up)": "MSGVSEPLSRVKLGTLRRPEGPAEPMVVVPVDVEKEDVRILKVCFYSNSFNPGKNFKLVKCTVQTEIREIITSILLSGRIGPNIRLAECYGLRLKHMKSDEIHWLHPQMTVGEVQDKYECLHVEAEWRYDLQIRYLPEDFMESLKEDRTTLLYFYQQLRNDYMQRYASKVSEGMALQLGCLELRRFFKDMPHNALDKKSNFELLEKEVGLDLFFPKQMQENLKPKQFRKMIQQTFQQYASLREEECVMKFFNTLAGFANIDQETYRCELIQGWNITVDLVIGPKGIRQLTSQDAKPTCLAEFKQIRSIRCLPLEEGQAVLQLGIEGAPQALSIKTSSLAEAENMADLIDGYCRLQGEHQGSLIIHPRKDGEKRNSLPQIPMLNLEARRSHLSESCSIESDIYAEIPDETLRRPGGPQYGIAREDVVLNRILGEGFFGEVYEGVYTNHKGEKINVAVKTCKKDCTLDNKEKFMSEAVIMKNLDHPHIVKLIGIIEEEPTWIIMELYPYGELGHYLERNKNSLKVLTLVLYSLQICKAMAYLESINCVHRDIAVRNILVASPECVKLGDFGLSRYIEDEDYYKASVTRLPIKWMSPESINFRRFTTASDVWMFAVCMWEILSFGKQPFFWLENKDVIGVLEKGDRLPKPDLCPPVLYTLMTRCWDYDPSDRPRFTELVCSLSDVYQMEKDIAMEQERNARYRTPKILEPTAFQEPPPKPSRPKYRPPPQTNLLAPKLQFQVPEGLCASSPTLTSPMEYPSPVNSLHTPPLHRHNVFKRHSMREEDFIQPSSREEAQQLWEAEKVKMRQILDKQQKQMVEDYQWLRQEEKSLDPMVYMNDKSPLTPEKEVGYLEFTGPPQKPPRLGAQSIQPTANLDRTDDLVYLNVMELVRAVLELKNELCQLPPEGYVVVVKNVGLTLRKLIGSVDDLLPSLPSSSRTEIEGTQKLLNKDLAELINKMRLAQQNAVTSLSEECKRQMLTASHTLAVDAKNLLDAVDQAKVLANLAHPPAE", "UniProt Q9P1W9, sequence (whole entry, looked up)": "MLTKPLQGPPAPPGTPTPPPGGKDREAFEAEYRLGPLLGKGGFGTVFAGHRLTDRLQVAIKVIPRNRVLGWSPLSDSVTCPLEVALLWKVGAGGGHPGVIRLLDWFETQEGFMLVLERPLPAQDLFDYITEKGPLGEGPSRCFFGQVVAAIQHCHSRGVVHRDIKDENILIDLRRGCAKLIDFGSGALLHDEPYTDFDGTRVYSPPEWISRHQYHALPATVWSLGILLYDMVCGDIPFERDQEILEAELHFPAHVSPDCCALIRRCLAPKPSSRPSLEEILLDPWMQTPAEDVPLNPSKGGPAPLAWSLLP", "UniProt Q13873, sequence (whole entry, looked up)": "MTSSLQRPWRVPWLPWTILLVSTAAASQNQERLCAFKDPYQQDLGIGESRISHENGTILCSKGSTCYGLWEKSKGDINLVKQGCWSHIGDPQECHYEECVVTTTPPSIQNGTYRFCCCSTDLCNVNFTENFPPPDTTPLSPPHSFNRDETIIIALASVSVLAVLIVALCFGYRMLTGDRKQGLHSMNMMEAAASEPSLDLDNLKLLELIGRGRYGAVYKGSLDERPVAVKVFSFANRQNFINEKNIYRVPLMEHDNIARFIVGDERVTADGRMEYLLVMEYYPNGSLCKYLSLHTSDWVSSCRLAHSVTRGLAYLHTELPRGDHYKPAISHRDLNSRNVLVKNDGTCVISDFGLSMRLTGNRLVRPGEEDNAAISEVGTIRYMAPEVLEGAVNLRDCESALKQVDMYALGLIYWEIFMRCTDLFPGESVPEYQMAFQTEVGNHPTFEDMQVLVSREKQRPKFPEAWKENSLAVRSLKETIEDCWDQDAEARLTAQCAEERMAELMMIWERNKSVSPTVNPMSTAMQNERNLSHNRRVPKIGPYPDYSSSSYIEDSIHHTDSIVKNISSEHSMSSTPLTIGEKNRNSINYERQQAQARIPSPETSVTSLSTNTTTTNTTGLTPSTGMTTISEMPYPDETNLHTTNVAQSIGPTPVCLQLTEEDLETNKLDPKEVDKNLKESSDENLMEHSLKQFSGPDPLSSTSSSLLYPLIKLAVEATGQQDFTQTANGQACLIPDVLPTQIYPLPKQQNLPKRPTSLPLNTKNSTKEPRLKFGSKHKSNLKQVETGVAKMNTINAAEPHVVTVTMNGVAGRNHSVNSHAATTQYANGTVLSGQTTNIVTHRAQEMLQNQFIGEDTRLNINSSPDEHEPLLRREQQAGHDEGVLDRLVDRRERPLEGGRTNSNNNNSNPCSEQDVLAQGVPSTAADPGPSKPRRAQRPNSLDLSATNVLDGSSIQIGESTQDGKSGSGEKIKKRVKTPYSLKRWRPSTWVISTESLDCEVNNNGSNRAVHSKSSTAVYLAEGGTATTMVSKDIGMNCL", "UniProt P10721, sequence (whole entry, unmodified, looked up)": "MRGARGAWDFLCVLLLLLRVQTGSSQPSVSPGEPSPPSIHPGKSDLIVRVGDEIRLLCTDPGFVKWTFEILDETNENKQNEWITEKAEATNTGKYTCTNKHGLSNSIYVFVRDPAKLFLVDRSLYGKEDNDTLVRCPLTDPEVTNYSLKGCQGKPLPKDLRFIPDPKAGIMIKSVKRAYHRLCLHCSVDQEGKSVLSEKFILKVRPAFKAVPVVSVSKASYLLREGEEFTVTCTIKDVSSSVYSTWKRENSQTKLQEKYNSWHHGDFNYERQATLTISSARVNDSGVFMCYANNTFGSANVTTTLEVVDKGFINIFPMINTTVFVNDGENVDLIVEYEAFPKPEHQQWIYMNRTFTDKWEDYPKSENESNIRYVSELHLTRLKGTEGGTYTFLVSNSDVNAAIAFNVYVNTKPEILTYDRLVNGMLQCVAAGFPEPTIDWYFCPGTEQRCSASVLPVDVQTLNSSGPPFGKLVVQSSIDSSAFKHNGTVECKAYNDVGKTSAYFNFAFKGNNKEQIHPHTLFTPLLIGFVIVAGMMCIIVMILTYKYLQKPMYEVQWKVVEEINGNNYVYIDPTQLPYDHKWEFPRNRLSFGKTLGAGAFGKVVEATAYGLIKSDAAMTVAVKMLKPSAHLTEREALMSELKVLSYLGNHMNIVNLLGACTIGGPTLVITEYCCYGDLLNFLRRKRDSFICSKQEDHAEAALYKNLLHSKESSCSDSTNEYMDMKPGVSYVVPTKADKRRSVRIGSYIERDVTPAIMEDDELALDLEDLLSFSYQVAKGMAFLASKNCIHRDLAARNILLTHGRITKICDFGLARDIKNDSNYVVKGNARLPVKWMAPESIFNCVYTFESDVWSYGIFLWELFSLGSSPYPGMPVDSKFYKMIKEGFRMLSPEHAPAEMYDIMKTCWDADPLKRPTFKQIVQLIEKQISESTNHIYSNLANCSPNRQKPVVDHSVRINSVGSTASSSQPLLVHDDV"}
{"data": "Block 1", "Compound": "COc1ccc2c(c1)O[C@H](c1ccc(OC)c(OC)c1)C[C@@H]2NC(=O)C1(c2ccc3c(c2)OC(F)(F)O3)CC1", "observed": "cell-free assay", "method": "competition with immobilised ligand", "concentration": "1 µM"}
{"target": "Tyrosine-protein kinase ABL1, phosphorylated (ABL1, Homo sapiens, UniProt P00519, E255K)", "remaining binding": "90%"}
{"target": "PTK2B (Homo sapiens, UniProt Q14289)", "remaining binding": "100%"}
{"target": "PRKD1 (Homo sapiens, UniProt Q15139)", "remaining binding": "100%"}
{"target": "MAP4K2 (Homo sapiens, UniProt Q12851)", "remaining binding": "99%"}
{"target": "DYRK2 (Homo sapiens, UniProt Q92630)", "remaining binding": "100%"}
{"target": "STK32B (Homo sapiens, UniProt Q9NY57)", "remaining binding": "100%"}
{"target": "MAP3K4 (Homo sapiens, UniProt Q9Y6R4)", "remaining binding": "98%"}
{"target": "BMPR2 (Homo sapiens, UniProt Q13873)", "remaining binding": "92%"}
{"target": "MARK2 (Homo sapiens, UniProt Q7KZI7)", "remaining binding": "100%"}
{"target": "KIT (Homo sapiens, UniProt P10721, V559D)", "remaining binding": "100%"}
{"target": "Ribosomal protein S6 kinase alpha-1, C-terminal kinase domain (RPS6KA1, Homo sapiens, UniProt Q15418)", "remaining binding": "100%"}
{"target": "STK39 (Homo sapiens, UniProt Q9UEW8)", "remaining binding": "100%"}
{"target": "PIM2 (Homo sapiens, UniProt Q9P1W9)", "remaining binding": "100%"}
{"target": "PIKFYVE (Homo sapiens, UniProt Q9Y2I7)", "remaining binding": "89%"}
{"target": "MAP3K20 (Homo sapiens, UniProt Q9NYL2)", "remaining binding": "97%"}
{"target": "Tyrosine-protein kinase JAK1, JH1 (JAK1, Homo sapiens, UniProt P23458)", "remaining binding": "100%"}
{"target": "HIPK1 (Homo sapiens, UniProt Q86Z02)", "remaining binding": "87%"}
{"target": "NUAK1 (Homo sapiens, UniProt O60285)", "remaining binding": "95%"}
{"target": "TAOK1 (Homo sapiens, UniProt Q7L7X3)", "remaining binding": "100%"}
{"target": "ABL2 (Homo sapiens, UniProt P42684)", "remaining binding": "100%"}
{"target": "DAPK3 (Homo sapiens, UniProt O43293)", "remaining binding": "95%"}
{"target": "FLT3 (Homo sapiens, UniProt P36888)", "remaining binding": "100%"}
{"data": "Block 2", "target": "Serine/threonine-protein kinase 3 (STK3, Homo sapiens, UniProt Q13188)", "observed": "enzyme activity", "action": "inhibitor", "concentration": "0.5 µM", "reference": "control", "Residues (Q13188 1-491)": "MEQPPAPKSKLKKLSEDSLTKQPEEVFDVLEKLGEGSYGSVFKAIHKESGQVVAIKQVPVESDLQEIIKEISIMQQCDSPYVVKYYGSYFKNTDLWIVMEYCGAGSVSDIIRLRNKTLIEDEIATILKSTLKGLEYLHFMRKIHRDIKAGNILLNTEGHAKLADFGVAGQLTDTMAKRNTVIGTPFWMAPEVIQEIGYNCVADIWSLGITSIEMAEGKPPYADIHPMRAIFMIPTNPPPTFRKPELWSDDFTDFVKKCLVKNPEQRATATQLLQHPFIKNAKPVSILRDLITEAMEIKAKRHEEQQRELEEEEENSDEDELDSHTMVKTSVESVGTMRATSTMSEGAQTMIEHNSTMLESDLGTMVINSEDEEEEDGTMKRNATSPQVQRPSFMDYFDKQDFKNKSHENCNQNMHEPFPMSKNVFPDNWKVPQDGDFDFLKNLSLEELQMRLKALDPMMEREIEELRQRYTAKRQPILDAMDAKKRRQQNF"}
{"SMILES": "Cc1nc(Nc2ncc(C(=O)Nc3c(C)cccc3Cl)s2)cc(N2CCN(CCO)CC2)n1", "remaining activity [%]": 90.6}
{"SMILES": "O=C(Nc1ccc(Cl)cc1)c1ccccc1NCc1ccncc1", "remaining activity [%]": 94.2}
{"SMILES": "CN(C)CCCn1cc(C2=C(c3c[nH]c4ccccc34)C(=O)NC2=O)c2ccccc21", "remaining activity [%]": 44.2}
{"SMILES": "Nc1[nH]nc2nnc(-c3c(-c4ccccc4)nn4ccccc34)cc12", "remaining activity [%]": 102}
{"SMILES": "COc1cc2ncc(-c3ccccc3)nc2cc1OC", "remaining activity [%]": 95.7}
{"SMILES": "COc1cc2ncnc(N3CCN(C(=O)Nc4ccc(Oc5ccccc5)cc4)CC3)c2cc1OC", "remaining activity [%]": 93.3}
{"SMILES": "COc1ccc(Cl)cc1NC(=O)Nc1cc(C)nc2ccccc12", "remaining activity [%]": 98.9}
{"SMILES": "C[S+]([O-])c1ccc(-c2nc(-c3ccncc3)c(-c3ccc(F)cc3)[nH]2)cc1 (stereo not drawn)", "remaining activity [%]": 102}
{"SMILES": "CC(C)c1nn(-c2c(Cl)cccc2Cl)c2nc(Cc3ccc(OCCO)cc3)[nH]c(=O)c12", "remaining activity [%]": 93.5}
{"SMILES": "Cn1cc(/C=C2\\C(=O)Nc3ccc(S(N)(=O)=O)cc32)c2ccccc21", "remaining activity [%]": 23.4}
{"SMILES": "Cn1cnc2cc3c(Nc4cccc(Br)c4)ncnc3cc21", "remaining activity [%]": 89.9}
{"SMILES": "CCC(=O)Nc1ccc2ncnc(Nc3cccc(Br)c3)c2c1", "remaining activity [%]": 88}
{"SMILES": "Cc1ccc(NC(=O)c2ccc(CN3CCN(C)CC3)cc2)cc1Nc1nccc(-c2cccnc2)n1", "remaining activity [%]": 97.9}
{"SMILES": "O=C1NC(=O)/C(=C/c2ccc3nccnc3c2)S1", "remaining activity [%]": 104}
{"SMILES": "COc1cc2ncnc(Nc3ccc(OCc4ccccc4)cc3)c2cc1OC", "remaining activity [%]": 97.6}
{"SMILES": "CC(=O)O/N=C1/C(c2c(O)[nH]c3cc(Br)ccc23)=Nc2ccccc21", "remaining activity [%]": 39.5}
{"SMILES": "CC(C)[C@H](CO)Nc1nc(Nc2cccc(Cl)c2)c2ncn(C(C)C)c2n1", "remaining activity [%]": 90.8}
{"SMILES": "CCOc1cc2ncnc(Nc3cccc(Br)c3)c2cc1OCC", "remaining activity [%]": 99.5}
{"SMILES": "COc1ccc(-c2cnc3c(-c4ccsc4)cnn3c2)cc1", "remaining activity [%]": 97.7}
{"SMILES": "O=c1cc(N2CCOCC2)oc2c1ccc1ccccc12", "remaining activity [%]": 99.1}
{"data": "Block 3", "target": "Calcium/calmodulin-dependent protein kinase type II subunit alpha (CAMK2A, Homo sapiens, UniProt Q9UQM7)", "observed": "enzyme activity", "action": "inhibitor", "concentration": "10 µM", "UniProt Q9UQM7, sequence (whole entry, looked up)": "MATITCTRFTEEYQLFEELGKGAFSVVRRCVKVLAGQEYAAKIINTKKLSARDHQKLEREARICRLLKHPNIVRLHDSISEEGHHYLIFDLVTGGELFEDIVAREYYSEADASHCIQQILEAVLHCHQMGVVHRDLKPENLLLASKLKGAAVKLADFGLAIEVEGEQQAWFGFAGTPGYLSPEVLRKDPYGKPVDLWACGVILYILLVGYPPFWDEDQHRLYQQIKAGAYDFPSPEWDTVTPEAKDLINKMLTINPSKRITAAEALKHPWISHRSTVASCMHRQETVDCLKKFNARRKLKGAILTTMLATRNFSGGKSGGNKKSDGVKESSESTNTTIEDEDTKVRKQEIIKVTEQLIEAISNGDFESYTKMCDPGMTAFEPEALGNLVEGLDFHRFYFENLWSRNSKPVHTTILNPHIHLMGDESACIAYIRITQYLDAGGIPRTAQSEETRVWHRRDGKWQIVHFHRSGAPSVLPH"}
{"Compound": "CCCCNc1ccc(C(=O)OCCOCCOCCOCCOCCOCCOCCOCCOCCOC)cc1", "inhibition [%]": -2}
{"Compound": "C=C(C)C1CC=C(C)C(O)C1 (mixture of isomers)", "inhibition [%]": 9}
{"Compound": "CCOCC(=O)O", "inhibition [%]": -53}
{"Compound": "CN1[C@@H]2CC[C@H]1CC(OC(=O)c1c[nH]c3ccccc13)C2 (stereo partly drawn)", "inhibition [%]": -0.05}
{"Compound": "CC1(C)O[C@@H]2C[C@H]3[C@@H]4CCC5=CC(=O)CC[C@]5(C)[C@@]4(F)[C@@H](O)C[C@]3(C)[C@]2(C(=O)CCl)O1", "inhibition [%]": -1}
{"Compound": "Nc1cc(-c2ccncc2)c[nH]c1=O", "inhibition [%]": -8}
{"Compound": "CC(C(=O)O)C(O)(CC(=O)O)C(=O)O (stereo not drawn)", "inhibition [%]": -12}
{"Compound": "CC1=C\\[C@@H](O)CC(=O)Cc2nc(co2)C(=O)N2CCC=C2C(=O)O[C@H](C(C)C)[C@H](C)/C=C/C(=O)NC\\C=C\\1", "inhibition [%]": -18}
{"Compound": "Cc1cccc(N2CC(CO)OC2=O)c1 (stereo not drawn)", "inhibition [%]": 14}
{"Compound": "NCCC[C@H](NC(=O)[C@@H]1CCCN1C(=O)[C@@H]1CSSC[C@H](N)C(=O)N[C@@H](Cc2ccc(O)cc2)C(=O)N[C@@H](Cc2ccccc2)C(=O)N[C@@H](CCC(N)=O)C(=O)N[C@@H](CC(N)=O)C(=O)N1)C(=O)NCC(N)=O", "inhibition [%]": -6}
{"Compound": "CC1=C(C)C(=O)C(CCCCCCCCCC[P+](c2ccccc2)(c2ccccc2)c2ccccc2)=CC1=O", "inhibition [%]": -5}
{"data": "Block 4", "SMILES": "COc1cc(C(=O)N2CCC(N3CCN(C)CC3)CC2)ccc1Nc1ncc2c(n1)N(C)c1ccccc1C(=O)N2C", "method": "KINOMEscan", "concentration": "10 µM", "reference": "DMSO control", "reading": "lower = stronger binding"}
{"target": "ACVR2B", "binding [%]": 100}
{"target": "OSR1", "binding [%]": 88}
{"target": "PIK3CG", "binding [%]": 15}
{"target": "CSNK2A2", "binding [%]": 93}
{"target": "YSK4", "binding [%]": 99}
{"target": "ROCK2", "binding [%]": 87}
{"target": "MARK1", "binding [%]": 87}
{"target": "NEK9", "binding [%]": 100}
{"target": "MAP3K1", "binding [%]": 95}
{"target": "PIK3CB", "binding [%]": 96}
{"target": "DYRK2", "binding [%]": 76}
{"target": "BMPR1B", "binding [%]": 76}
{"target": "CLK3", "binding [%]": 95}
{"target": "IGF1R", "binding [%]": 96}
{"target": "HUNK", "binding [%]": 100}
{"target": "IRAK3", "binding [%]": 100}
{"target": "BRSK2", "binding [%]": 64}
{"target": "HCK", "binding [%]": 100}
{"target": "NDR1", "binding [%]": 96}
{"note": "Some of these lines once more (block 1):"}
{"target": "PTK2B (Homo sapiens, UniProt Q14289)", "remaining binding": "100%"}
{"target": "PRKD1 (Homo sapiens, UniProt Q15139)", "remaining binding": "100%"}
{"target": "MAP4K2 (Homo sapiens, UniProt Q12851)", "remaining binding": "99%"}
{"target": "DYRK2 (Homo sapiens, UniProt Q92630)", "remaining binding": "100%"}
{"target": "STK32B (Homo sapiens, UniProt Q9NY57)", "remaining binding": "100%"}
{"target": "MAP3K4 (Homo sapiens, UniProt Q9Y6R4)", "remaining binding": "98%"}
{"target": "BMPR2 (Homo sapiens, UniProt Q13873)", "remaining binding": "92%"}
